Assay results gathered from unrelated publications.
Each numbered part is a random draw from the data of one study; scales do not carry over between parts. Values joined by “and” are separate records of one study, mostly repeats; a detail may differ.
Sequence of UniProt Q13233 (whole entry, looked up): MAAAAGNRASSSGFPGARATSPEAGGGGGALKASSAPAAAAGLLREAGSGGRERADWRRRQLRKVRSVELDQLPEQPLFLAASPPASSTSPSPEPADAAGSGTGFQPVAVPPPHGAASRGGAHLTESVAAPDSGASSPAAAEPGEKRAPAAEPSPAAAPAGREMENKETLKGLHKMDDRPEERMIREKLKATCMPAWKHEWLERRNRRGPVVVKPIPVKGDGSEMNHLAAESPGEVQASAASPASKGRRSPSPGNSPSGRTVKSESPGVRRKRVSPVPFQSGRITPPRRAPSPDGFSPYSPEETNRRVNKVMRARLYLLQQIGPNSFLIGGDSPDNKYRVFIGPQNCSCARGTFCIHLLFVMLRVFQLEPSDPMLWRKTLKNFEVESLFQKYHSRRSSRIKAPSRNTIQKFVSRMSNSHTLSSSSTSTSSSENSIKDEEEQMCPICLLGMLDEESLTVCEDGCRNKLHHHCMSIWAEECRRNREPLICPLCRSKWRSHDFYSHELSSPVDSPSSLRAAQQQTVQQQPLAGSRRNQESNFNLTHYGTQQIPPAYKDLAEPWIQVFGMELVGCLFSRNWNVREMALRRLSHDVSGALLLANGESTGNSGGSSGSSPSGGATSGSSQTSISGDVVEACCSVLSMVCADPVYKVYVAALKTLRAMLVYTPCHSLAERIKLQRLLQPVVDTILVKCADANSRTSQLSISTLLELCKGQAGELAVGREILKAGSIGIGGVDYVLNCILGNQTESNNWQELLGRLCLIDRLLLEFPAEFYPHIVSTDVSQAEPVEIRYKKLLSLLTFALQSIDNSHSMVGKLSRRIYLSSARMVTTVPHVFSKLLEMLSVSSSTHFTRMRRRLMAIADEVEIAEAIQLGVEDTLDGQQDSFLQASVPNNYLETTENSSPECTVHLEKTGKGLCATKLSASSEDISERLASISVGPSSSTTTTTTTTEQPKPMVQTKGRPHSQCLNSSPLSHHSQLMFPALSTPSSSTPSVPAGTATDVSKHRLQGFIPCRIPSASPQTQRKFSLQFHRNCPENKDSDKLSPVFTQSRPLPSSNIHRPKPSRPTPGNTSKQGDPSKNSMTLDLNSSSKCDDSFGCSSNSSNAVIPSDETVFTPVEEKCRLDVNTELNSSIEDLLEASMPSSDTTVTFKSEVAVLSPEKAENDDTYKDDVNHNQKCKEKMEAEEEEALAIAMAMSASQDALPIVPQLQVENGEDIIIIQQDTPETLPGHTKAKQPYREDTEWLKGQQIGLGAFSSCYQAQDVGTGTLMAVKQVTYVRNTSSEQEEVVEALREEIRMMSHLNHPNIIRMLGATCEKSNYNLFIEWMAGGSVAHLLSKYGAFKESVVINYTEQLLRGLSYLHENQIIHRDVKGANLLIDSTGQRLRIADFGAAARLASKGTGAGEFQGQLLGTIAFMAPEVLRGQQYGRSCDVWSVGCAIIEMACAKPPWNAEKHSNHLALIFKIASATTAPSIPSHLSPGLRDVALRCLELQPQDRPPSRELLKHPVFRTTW
Sequence of UniProt Q56UN5 (whole entry, looked up): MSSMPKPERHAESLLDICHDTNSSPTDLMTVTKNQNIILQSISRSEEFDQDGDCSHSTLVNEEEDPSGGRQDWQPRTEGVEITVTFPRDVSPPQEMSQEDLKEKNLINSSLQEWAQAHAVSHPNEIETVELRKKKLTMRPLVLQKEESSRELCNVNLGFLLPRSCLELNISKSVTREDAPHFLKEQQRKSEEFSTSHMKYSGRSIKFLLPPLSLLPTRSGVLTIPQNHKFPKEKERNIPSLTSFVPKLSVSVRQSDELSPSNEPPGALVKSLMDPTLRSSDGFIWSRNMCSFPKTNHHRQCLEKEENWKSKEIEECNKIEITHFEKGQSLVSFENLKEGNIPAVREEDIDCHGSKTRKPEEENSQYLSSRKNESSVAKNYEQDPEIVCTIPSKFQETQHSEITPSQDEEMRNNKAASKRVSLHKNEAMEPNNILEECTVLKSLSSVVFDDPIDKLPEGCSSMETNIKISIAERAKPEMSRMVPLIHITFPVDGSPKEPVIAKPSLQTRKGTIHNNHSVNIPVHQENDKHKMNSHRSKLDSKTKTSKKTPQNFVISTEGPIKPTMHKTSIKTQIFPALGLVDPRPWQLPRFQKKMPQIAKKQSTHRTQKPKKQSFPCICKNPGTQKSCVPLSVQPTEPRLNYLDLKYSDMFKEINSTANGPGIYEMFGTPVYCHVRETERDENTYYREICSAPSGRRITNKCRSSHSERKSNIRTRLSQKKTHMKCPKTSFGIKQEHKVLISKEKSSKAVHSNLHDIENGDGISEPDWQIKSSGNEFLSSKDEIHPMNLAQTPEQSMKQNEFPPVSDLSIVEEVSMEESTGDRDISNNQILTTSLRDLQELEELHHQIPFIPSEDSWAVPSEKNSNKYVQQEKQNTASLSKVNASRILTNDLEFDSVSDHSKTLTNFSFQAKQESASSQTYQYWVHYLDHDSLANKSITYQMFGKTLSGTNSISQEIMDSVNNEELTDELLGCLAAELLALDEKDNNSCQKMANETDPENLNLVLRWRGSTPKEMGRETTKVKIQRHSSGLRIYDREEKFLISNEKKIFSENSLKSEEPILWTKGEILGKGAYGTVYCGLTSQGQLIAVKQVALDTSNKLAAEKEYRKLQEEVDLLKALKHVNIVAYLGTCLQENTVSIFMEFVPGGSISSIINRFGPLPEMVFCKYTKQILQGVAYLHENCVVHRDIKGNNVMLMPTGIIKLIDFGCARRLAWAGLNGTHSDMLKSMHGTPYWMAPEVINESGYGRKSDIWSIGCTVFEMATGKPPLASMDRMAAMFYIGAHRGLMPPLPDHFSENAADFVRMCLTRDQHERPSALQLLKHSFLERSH
Sequence of UniProt Q15831 (whole entry, looked up): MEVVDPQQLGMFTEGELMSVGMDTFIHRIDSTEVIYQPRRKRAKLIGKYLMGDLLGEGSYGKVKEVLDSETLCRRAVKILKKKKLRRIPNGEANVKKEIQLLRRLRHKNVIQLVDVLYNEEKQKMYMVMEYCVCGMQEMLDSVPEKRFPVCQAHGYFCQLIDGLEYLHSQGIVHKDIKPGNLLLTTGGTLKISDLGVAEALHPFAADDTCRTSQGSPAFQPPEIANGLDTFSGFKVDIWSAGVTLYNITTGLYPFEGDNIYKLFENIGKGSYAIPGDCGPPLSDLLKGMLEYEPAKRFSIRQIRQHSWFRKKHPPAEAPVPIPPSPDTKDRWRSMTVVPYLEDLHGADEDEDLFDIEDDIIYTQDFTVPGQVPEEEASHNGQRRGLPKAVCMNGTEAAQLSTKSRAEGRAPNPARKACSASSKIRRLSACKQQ
Sequence of UniProt Q96L34 (whole entry, looked up): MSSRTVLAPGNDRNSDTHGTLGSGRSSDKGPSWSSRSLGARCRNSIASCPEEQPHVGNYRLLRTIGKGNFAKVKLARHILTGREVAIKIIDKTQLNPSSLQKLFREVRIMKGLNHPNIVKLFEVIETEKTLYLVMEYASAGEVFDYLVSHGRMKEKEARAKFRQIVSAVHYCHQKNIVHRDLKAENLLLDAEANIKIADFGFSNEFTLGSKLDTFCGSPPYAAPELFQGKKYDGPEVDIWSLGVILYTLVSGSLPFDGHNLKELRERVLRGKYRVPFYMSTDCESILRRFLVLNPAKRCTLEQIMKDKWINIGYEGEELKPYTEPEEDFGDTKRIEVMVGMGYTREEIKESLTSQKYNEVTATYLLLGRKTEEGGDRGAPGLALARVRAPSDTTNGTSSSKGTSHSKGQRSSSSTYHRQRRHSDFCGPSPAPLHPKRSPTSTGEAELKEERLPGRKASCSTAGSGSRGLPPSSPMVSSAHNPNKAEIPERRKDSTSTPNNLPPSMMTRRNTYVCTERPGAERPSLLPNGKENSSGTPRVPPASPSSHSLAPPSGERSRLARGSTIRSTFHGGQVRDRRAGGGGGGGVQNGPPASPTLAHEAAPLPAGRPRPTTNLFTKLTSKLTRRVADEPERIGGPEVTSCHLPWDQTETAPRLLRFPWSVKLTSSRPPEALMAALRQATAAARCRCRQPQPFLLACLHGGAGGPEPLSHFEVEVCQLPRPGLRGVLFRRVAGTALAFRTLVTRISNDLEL
Sequence of UniProt Q8TBX8 (whole entry, looked up): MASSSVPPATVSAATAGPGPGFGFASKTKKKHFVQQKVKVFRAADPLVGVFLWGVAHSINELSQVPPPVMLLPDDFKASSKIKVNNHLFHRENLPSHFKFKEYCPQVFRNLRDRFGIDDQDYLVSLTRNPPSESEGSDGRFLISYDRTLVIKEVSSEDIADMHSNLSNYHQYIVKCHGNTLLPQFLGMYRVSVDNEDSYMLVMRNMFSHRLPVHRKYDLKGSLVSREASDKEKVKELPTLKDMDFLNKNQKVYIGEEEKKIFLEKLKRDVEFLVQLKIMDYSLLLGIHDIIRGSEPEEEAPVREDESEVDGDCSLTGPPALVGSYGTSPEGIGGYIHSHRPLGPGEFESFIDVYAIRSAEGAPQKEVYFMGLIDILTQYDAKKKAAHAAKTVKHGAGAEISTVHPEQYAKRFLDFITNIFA

Sample 1 — method: competition with immobilised ligand; concentration: 1 µM
Structure (SMILES): Cc1c(NC(=O)c2cc(C(N)=O)nc3cc(F)ccc23)c(C(F)(F)F)nn1Cc1ccc(C#N)cc1
For TAOK3 (Homo sapiens, UniProt Q9H2K8); cell-free assay: remaining binding read 79%.
FGFR1 (Homo sapiens, UniProt P11362); cell-free assay — remaining binding: 100%.
DYRK1B (Homo sapiens, UniProt Q9Y463); cell-free assay — remaining binding: 87%.
It gave 100% for remaining binding (PIP4K2C (Homo sapiens, UniProt Q8TBX8); binding).
It gave 72% for remaining binding (MAP3K19 (Homo sapiens, UniProt Q56UN5); cell-free assay).
MAP3K1 (Homo sapiens, UniProt Q13233); cell-free assay — remaining binding: 65%.
For STK11 (Homo sapiens, UniProt Q15831); cell-free assay: remaining binding read 100%.
For WEE1 (Homo sapiens, UniProt P30291); cell-free assay: remaining binding read 94%.
For MARK4 (Homo sapiens, UniProt Q96L34); cell-free assay: remaining binding read 100%.
For NEK5 (Homo sapiens, UniProt Q6P3R8); cell-free assay: remaining binding read 100%.
NEK3 (Homo sapiens, UniProt P51956); cell-free assay — remaining binding: 74%.
The remaining binding was 85% (PIK3CA (Homo sapiens, UniProt P42336, Q546K); cell-free assay).

Sample 2 — read-out: enzyme activity; action: inhibitor; concentration: 0.5 µM; baseline: control
Target: Ephrin type-A receptor 8 (EPHA8, Homo sapiens, UniProt P29322)
Construct (P29322 1-1005): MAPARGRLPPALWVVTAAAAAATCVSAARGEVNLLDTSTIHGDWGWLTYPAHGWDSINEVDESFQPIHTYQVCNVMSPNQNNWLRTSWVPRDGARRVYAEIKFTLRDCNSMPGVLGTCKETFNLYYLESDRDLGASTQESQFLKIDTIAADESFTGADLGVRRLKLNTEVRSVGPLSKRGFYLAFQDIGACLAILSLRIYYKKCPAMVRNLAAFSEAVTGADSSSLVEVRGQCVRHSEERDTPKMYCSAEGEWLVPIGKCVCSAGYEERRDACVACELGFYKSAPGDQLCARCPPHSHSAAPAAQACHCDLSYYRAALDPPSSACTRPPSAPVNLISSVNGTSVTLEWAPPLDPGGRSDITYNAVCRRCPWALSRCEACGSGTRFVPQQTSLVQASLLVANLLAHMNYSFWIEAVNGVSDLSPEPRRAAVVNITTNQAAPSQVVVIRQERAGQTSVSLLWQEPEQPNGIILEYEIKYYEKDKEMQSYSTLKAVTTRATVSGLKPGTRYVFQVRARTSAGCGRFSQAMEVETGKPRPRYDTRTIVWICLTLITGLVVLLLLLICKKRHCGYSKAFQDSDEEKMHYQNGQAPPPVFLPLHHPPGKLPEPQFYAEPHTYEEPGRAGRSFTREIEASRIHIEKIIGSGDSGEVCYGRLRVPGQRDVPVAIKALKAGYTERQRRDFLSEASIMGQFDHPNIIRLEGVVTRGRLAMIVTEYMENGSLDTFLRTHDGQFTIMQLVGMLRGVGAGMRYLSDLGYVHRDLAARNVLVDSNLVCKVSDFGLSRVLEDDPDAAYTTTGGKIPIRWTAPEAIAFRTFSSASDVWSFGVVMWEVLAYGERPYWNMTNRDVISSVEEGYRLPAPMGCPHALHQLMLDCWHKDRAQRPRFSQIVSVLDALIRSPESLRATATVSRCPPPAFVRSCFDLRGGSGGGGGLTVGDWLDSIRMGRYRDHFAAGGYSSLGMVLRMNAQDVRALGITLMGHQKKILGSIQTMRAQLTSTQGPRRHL
For `COc1cc2c(N3CCN(C(=O)Nc4ccc(OC(C)C)cc4)CC3)ncnc2cc1OCCCN1CCCCC1`, the remaining activity was 96.6%.
The remaining activity of `N#C/C(=C(/N)SC1C=CC=CC1)c1cccc(C(O)c2ccncc2)c1` (centres unmarked) is reported as 97%.
`O=Nc1c(-c2c(O)[nH]c3ccccc23)[nH]c2ccccc12` has a remaining activity of 91.1%.
With `N#CC(c1ccnc(NCCc2cccnc2)n1)c1nc2ccccc2s1` (centres unmarked) the remaining activity was 98.5%.
`c1cc(-c2cnn3cc(-c4ccc(OCCN5CCCCC5)cc4)cnc23)ccn1` has a remaining activity of 79.8%.
The remaining activity of `NC(=O)c1ccc(-c2nc(-c3ccc4c(c3)OCCO4)c(-c3ccccn3)[nH]2)cc1` is reported as 101%.
With `COc1cc2c(Nc3ccc(Br)cc3F)ncnc2cc1OCC1CCN(C)CC1` the remaining activity was 33.9%.
For `Nc1nc(Nc2ccc(S(N)(=O)=O)cc2)nn1C(=S)Nc1c(F)cccc1F`, the remaining activity was 98.5%.
The remaining activity of `CNc1cc2c(Nc3cccc(Br)c3)ncnc2cn1` is reported as 87.9%.

Sample 3 — read-out: AlphaScreen signal; method: AlphaScreen counter screen; medium: His6 peptide without bromodomain; concentration: 50 µM; notes: assay interference check
For `O=C(Nc1cccc(Nc2nccc(Nc3cccc(C(F)(F)F)c3)n2)c1)C1CC1`, the inhibition was 32.3%.
For `COc1ccc(CNc2nc(N(CCO)CCO)nc3c2ncn3C(C)C)cc1`, the inhibition was 22.6%.
For `CN(C)c1cccc(-c2nc(-c3ccncc3)cnc2N)c1`, the inhibition was 38.9%.
For `CCc1cnn2c(NCc3ccc[n+]([O-])c3)cc(N3CCCC[C@H]3CCO)nc12`, the inhibition was 10%.
`Cc1cnc(Nc2ccc(F)cc2Cl)nc1-c1c[nH]c(C(=O)N[C@H](CO)c2cccc(Cl)c2)c1` has an inhibition of 66.1%.
With `COc1cc2ncnc(Nc3ccc(F)c(Cl)c3)c2cc1NC(=O)/C=C/CN1CCCCC1` the inhibition was 54.8%.
For `Cc1ccc2c(c1)C(=NNC(=O)c1cccc(O)c1)C(=O)N2`, the inhibition was 14.1%.
With `CCCN(CCC)CCCNc1ccc2nnc(-c3ccc(F)cc3)n2n1` the inhibition was 11.2%.
`Cn1cnc2c(NCc3ccccc3)nc(NCCO)nc21` gave an inhibition of 14.2%.

Sample 4 — cell line: mouse MPNST tumor cells; method: high-content nuclear imaging; measured: cell number; concentration: 10 µM; time: 12 h; notes: mean of 2 replicates; baseline: plate mean; reading: higher = more cells
`CN(C)CCC=C1c2ccccc2CCc2ccccc21` has a nuclei count of -0.441 z-score.
`CNc1cc(OC)c(C(=O)NC2CCN(Cc3ccccc3)C2C)cc1Cl` (centres unmarked) gave a nuclei count of 2.7 z-score.
With `c1ccc2c(CC3=NCCN3)cccc2c1` the nuclei count was 0.918 z-score.
For `N[C@@H](C(=O)N[C@@H]1C(=O)N2C(C(=O)O)=C(Cl)CC[C@H]12)c1ccccc1`, the nuclei count was 0.472 z-score.
`CC(=O)O[C@]1(C(C)=O)CC[C@H]2[C@@H]3C=C(C)C4=CC(=O)CC[C@]4(C)[C@H]3CC[C@@]21C` has a nuclei count of 5.23 z-score and 2.66 z-score.
`CN1CCCN=C1/C=C/c1cccs1` gave a nuclei count of -0.495 z-score.
With `OCC1OC(n2cnc3c(NC4CCCC4)nc(Cl)nc32)C(O)C1O` (centres unmarked) the nuclei count was 0.119 z-score.
`CC(C)Oc1ccc2c(=O)c3cc(C(=O)O)ccc3oc2c1` gave a nuclei count of 0.0819 z-score.
The nuclei count of `CCC(=O)NC1Cc2ccccc2C(c2ccccc2)C1` (centres unmarked) is reported as -0.779 z-score.
`CCCCC#Cc1nc(NC)c2ncn(C3OC(CO)C(O)C3O)c2n1` (centres unmarked) gave a nuclei count of -1.4 z-score.
`CCCn1c(=O)c(C)cn2nc(N)nc12` gave a nuclei count of -0.602 z-score.
